# Assay results from different studies.
# A part holds a random share of what one study measured.

# Block 1
# Target: Interferon regulatory factor 7, full length, phosphomimetic (IRF7, Homo sapiens, UniProt Q92985, residues 1-503, S471D/S472D/S475D/S476D/S477D/S483D/S484D/S487D)
# Sequence of UniProt Q92985 (whole entry, unmodified, looked up): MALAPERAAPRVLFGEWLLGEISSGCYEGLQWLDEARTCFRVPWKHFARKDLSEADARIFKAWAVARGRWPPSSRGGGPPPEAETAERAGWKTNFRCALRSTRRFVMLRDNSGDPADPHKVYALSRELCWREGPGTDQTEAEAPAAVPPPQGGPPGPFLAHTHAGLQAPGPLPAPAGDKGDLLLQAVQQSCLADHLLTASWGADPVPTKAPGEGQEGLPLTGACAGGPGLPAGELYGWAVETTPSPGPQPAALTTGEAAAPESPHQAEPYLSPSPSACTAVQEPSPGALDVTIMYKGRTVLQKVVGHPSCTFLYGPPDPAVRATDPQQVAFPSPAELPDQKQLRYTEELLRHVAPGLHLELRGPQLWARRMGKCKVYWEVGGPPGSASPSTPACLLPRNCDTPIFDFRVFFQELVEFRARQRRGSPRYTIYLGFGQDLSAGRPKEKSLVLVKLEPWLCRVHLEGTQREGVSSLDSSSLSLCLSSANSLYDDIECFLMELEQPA
# Technique: protein-binding microarray
# Form: double-stranded DNA, one strand shown
# Sample: in vitro
# Concentration: 2200 nM top
# Setting: 60-bp whole probe
# With: salmon DNA 0.4 mg/ml
# Baseline: random background probes
# Direction: higher = stronger binding
# All sequences stand within: GCCTAGCAC … GTCTTGATTCGCTTGACGCTGCTG
Oligonucleotide,fitted relative affinity [z-score]
TTAGATCACAGTTTCGATTAGTGCTAG,4.9
GACGGTATCGGTTTCGGGTCGTGCTAG,7.06
TTAGGACTGGTGTTTCGGTTAGTGCTA,2.83
GACGGTATCGGGACTGGGGCCGTGCTA,-0.745
CACGATATCAGTTTCGAGACGTGCTAG,3.86
GCCGGACTGCTTCTCCTGACGTGCTAG,0.236
CTCCATGAACAGGGCTGATGGTGCTAG,-0.183
CTAGAACTGAGTTTCGATTAGTGCTAG,3.78

# Block 2
# Target: Transcription factor SOX-2, HMG box (Sox2, Mus musculus, UniProt P48432, residues 41-119)
# Sequence of UniProt P48432 (41-119, looked up): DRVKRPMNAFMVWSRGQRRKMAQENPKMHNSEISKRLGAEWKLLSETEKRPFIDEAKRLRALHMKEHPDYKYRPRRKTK
# Technique: Spec-seq
# Form: double-stranded DNA, one strand shown
# Sample: in vitro
# Concentration: not given
# Setting: whole probe, mean of replicates
# Baseline: not given
# Direction: lower = stronger binding
# All sequences stand within: GAGTCGTCTCGTCAGCAC … CCGTAGAGCACTCAGGTC
Oligonucleotide,relative binding energy [ln ratio]
CATTTTC,-0.233
CATCAGG,0.294
ATCCGTT,0.711
CATCTAG,0.39
CATCTGA,0.854
ACACGTT,0.391
CATAGGC,-0.533
GCACGTT,1.19
ATGCGTT,0.922
CATGACC,0.317
GTCGGTT,1.48
CATGGTA,-0.0486

# Block 3
# Target: Hepatocyte nuclear factor 3-alpha (Foxa1, Mus musculus, UniProt P35582, residues 1-468, full length assumed)
# Technique: EMSA with sequencing
# Form: double-stranded DNA, one strand shown
# Sample: in vitro
# Concentration: 10 and 20 nM
# Setting: whole designed probe, mean of two concentrations, ends assumed
# Baseline: negative control set to 0
# Direction: higher = stronger binding
# All sequences stand within: GTGAGCGGTGCCCATTGATGGGGAAC … TTTCACTGGGATCGTGGGGAC
# Residues (chain): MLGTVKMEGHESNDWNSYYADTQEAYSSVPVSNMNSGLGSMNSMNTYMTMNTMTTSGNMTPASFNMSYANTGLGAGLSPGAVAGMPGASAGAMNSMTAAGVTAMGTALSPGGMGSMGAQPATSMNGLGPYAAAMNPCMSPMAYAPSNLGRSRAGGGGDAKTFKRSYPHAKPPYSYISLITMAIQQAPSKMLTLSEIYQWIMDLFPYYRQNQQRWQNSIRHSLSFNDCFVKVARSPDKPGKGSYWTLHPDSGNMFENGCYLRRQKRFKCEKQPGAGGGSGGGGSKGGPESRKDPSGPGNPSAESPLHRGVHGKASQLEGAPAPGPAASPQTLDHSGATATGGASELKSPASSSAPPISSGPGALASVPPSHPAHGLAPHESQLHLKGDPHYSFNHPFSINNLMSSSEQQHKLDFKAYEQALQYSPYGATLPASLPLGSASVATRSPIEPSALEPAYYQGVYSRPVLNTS
Oligonucleotide,normalised bound fraction [ratio]
GGGTCCCGGGCGGCGGCAGGAATGCAGGAATGCGCACAGGCTGTGGGCGGCCAGGAGGGAGTCCCGGCGCCTGCCCCGGCCGTAGTGAGTCTTTGTGTACCCTGTCCAACACCTCCCCCCGCCAGCGCGGAAGGCCGGGCTACCTGCGCGCCTGGCAGCGCCTGGCAGCCGGCTGGGTGGGGCGCAGGGGAGC,-0.0102
TCCATTAATAAGCCCATTCCACCCACATTCACAAACTTGCAACAGAGAAAAGATGGGAATATTTAGAATAATATATCCATACAATTTATGTCCCTGTTTACTTTTAATATTTTTGGAGCCCAATTCTCCGGATGTGCTCAAATCAGCCTCTGTAGACTCAGATGTTTTGAAAAGTATTTTGATTGCTAACATC,0.265
AAGCTTCAAATTTTTTATTAGGTTTCACAATGCATTTCTAGATAGAAATTAAAATATAACATGCCATAGAGATTATAATGTAAACAGATATTTGTTTACTTAGCACTTCATTGCAATTTCTTTATATAACAAATCCAATTTACCAACATATTAACGTATGGGTGTATGCAATCATGATTATATTGGTTCTGCT,0.574
AAAAATGCTCATCTCTGAATGGTGGGATTATTGTTTCTATATTCTTCTTATACATGCCTGTATTTTTTTAAACAATGAATGTTTATTACTCTGAGATTACAAAAAAGGGAGAGTTTAAAGCCCCTTACCCCAAAGTGAGGCAGGAATCAAGTCAGGGGCTTAAAGTGGCGAGCCCTGGGCTCTTTCCTGGGCT,-0.0308
TTGGAGACTAACAGAAGGAATATATATTTTTTGAAGAGAAAAAAAACACAATTATCTTATTTTTGTCCTGGCTCTAACTTTGGCCAGTGTCAAAGTAATCTGGATAGATGGCTTCTCCATGCTAAATGATGCTAGATTAACATTGAAAGAAAAATTATAGTGATCAGTTATTTCAGTTTCAAATGTCCCAAAT,0.055
TCACGCTATCCAGCTCAGCACTTGGCAAACATTAGCTCACCACAAGAATGCATCCTCAGGTTTTTAAGTCAGACAAGGGCTTCATAGCAGTTCAAATGACATTGGGGATGAACAGTTCCTTGCGGTGGGGGCTGTTCTGTGCATTGTGAGACGCTCAGCAGCATCCACGTGGCCTCTTTCCACTAGATGCCAA,0.181
TATTTTTACTAATTTGTATTTTCTAATTTTTTTTTTTTTTTTTTTTAAATTCACTAGGGTTTTTCTCTCTTTGACATTTAAACAAGAACACAAAGTAATCTGGAAATACAATTTCCAATGTCTTTTAAAGATAATGTTTTTATATAAGTTGTGTGTTCTCACTAGTTTTTTCTTCTTGAGGTAATGTATTAAT,0.11
CACTAGCCAAGCAAATGCTACCTTTCCTAAATTACGCCGTGGTATTGTGTACGACAGCAGCAGGGTTGCTATTTTAAAATGGGATTGCGTAAAATAAACATGTGCCCAACAGGAAGTAGATGCTAAGTTGATGATTAATTGATGCTCTGGTACGGCCTCGTGCTTTCCAGTGCTTCCATTTGTGTGACGATCC,0.242

# Mixed results
Molecule,target,assay,system,setting,scale,measurement,result
"PhoQ, residues 284 288 289 292 302 303 TSTLRA","PhoP, residues 12 14 15 18 19 NQGLL (Escherichia coli, UniProt P23836)","Sort-seq, refers to: YFP reporter",E. coli,"PhoQ-PhoP variant library, with: 10 µM Mg2+","baseline: high Mg2+ state, higher = stronger signaling",fold induction,3.74

# Some of these lines once more (block 3):
Oligonucleotide,normalised bound fraction [ratio]
CACTAGCCAAGCAAATGCTACCTTTCCTAAATTACGCCGTGGTATTGTGTACGACAGCAGCAGGGTTGCTATTTTAAAATGGGATTGCGTAAAATAAACATGTGCCCAACAGGAAGTAGATGCTAAGTTGATGATTAATTGATGCTCTGGTACGGCCTCGTGCTTTCCAGTGCTTCCATTTGTGTGACGATCC,0.242
TATTTTTACTAATTTGTATTTTCTAATTTTTTTTTTTTTTTTTTTTAAATTCACTAGGGTTTTTCTCTCTTTGACATTTAAACAAGAACACAAAGTAATCTGGAAATACAATTTCCAATGTCTTTTAAAGATAATGTTTTTATATAAGTTGTGTGTTCTCACTAGTTTTTTCTTCTTGAGGTAATGTATTAAT,0.11
